Assay results of several laboratories.
Numbered parts are unrelated; each lists some results of a single study. Changes are numbered by the printed parent chain.
UniProt Q8RYC6, sequence (whole entry, looked up): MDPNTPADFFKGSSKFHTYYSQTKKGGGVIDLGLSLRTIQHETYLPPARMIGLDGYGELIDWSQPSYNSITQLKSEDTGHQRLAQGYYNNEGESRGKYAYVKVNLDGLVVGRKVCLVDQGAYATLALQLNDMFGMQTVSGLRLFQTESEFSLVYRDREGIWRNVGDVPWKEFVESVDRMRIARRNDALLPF
UniProt Q93WC4, sequence (whole entry, looked up): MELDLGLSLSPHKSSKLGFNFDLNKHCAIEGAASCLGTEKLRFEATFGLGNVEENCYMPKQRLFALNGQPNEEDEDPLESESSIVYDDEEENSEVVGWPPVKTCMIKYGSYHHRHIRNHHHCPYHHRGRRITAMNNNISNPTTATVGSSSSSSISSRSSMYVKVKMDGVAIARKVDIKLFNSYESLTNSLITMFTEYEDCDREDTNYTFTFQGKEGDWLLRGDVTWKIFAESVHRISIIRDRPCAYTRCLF
UniProt O23661, sequence (whole entry, looked up): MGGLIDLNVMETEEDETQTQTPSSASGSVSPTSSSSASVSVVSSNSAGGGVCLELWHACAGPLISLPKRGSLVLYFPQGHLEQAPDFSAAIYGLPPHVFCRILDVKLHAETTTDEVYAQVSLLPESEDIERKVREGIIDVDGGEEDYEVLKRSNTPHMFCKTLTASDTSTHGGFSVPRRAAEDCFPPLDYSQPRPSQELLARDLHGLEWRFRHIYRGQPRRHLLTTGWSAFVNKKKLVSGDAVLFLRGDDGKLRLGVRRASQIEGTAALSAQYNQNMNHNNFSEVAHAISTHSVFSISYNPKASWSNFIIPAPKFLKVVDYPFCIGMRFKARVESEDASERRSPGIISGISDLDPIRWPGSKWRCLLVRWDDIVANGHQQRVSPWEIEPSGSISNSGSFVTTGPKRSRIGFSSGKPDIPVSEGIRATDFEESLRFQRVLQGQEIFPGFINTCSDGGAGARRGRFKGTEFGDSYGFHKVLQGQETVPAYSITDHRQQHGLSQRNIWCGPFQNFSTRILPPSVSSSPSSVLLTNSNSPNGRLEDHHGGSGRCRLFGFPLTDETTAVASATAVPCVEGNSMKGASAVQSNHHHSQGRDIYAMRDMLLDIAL
UniProt Q8RYC8, sequence (whole entry, looked up): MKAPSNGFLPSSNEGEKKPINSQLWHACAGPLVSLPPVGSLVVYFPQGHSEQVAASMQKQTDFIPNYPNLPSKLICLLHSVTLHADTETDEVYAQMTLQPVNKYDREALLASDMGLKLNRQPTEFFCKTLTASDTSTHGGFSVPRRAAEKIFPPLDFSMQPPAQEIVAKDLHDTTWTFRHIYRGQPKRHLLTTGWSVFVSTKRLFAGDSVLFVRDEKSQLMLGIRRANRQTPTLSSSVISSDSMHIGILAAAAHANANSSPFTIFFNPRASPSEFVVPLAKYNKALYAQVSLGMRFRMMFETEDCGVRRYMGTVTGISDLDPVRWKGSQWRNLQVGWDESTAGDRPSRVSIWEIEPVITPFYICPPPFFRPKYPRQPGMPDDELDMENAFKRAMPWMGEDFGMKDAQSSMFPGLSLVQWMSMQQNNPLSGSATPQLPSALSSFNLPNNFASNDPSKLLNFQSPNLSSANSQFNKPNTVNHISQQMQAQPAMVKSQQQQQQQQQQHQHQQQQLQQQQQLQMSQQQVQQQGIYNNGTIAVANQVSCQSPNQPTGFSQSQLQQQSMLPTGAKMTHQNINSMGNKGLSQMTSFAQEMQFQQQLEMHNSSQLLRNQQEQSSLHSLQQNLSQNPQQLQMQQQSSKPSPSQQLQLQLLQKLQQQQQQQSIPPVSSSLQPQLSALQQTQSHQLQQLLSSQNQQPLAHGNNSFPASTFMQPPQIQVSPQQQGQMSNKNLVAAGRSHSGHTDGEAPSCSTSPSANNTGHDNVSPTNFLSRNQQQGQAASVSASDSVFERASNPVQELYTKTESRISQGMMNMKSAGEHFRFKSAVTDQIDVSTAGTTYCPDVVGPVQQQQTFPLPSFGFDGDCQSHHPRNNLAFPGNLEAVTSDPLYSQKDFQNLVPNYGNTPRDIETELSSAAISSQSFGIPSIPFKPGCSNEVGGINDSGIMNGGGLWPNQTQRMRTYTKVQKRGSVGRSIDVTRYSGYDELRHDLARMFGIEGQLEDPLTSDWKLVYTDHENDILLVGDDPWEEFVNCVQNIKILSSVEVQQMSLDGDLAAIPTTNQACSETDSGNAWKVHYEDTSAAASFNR
UniProt Q9C8N7, sequence (whole entry, looked up): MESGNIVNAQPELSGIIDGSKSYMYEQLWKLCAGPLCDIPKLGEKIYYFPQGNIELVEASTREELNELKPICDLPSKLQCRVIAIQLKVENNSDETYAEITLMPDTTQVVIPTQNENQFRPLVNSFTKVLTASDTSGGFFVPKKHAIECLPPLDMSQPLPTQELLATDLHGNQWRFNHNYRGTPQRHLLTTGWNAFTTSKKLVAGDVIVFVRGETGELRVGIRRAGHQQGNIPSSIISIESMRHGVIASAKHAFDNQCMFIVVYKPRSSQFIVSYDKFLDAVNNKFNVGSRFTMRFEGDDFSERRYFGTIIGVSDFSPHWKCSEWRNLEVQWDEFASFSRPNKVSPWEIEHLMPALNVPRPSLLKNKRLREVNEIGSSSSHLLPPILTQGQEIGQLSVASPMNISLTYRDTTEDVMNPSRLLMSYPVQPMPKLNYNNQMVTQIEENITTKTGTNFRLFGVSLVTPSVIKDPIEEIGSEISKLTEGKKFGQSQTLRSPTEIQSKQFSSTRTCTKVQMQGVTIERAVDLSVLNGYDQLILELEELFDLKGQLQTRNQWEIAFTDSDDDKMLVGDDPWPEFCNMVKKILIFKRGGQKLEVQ
UniProt Q9ZPY6, sequence (whole entry, looked up): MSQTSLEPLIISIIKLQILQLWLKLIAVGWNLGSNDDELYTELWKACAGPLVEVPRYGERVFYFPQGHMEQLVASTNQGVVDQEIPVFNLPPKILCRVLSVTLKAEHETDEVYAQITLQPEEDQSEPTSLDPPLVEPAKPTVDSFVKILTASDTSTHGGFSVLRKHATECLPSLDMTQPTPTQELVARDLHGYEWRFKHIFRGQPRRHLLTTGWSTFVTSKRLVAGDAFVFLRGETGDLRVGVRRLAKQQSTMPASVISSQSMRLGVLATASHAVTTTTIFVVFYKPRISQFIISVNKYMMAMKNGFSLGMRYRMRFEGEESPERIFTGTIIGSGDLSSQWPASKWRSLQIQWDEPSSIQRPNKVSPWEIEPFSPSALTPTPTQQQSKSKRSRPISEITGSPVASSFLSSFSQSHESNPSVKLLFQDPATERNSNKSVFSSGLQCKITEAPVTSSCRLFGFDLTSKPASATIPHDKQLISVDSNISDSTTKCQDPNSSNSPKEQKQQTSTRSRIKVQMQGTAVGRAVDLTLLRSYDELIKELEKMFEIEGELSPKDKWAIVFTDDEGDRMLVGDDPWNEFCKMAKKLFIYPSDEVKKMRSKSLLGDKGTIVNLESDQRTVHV
UniProt Q84WU6, sequence (whole entry, looked up): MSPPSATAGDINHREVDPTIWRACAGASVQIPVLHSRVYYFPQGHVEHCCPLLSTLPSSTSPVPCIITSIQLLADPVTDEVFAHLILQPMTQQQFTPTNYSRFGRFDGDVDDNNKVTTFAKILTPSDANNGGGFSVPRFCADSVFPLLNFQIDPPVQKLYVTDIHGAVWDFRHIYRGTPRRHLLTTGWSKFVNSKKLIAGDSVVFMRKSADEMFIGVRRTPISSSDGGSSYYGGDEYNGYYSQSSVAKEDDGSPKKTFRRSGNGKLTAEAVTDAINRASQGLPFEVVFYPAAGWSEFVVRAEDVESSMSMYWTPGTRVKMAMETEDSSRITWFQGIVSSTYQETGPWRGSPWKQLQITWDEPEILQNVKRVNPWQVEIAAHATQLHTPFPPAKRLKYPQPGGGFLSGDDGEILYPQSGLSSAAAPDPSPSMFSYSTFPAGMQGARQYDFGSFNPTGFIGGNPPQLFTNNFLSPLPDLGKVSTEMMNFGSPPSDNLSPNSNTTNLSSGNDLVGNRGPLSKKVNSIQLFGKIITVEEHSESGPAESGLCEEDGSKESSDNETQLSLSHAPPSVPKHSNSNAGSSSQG

Series 1
Molecule: B1 (IAA11)
Technique: two-hybrid
Notes: weak activation fusion
Direction: higher = firmer interaction
B1: IAA11 (Arabidopsis thaliana, UniProt Q38829); chain MEGGSASGSASALSNDENLVVSCEDSSSPIGNELELGLTLSLGRKGYRDCRVYADDSSSSSSSSSLSRASVIAGIKRTADSMAATSGQVVGWPPIRTYRMNSMVNQAKASATEDPNLEISQAVNKNRSDSTKMRNSMFVKVTMDGIPIGRKIDLNAHKCYESLSNTLEEMFLKPKLGSRTLETDGHMETPVKILPDGSSGLVLTYEDKEGDWMLVGDVPWGMFIGSVRRLRIMKTSEATGKAQMIL
partner	how to read	positive tests
IAA32 (Arabidopsis thaliana, UniProt Q8RYC6)	relative to: out of 4 tests	0
ARF19 948-1086 (Arabidopsis thaliana, UniProt Q8RYC8)	relative to: out of 4 tests	0
ARF22 498-598 (Arabidopsis thaliana, UniProt Q9C8N7)	relative to: out of 2 tests	0
ARF17 (Arabidopsis thaliana, UniProt Q84WU6)	relative to: out of 1 tests	0
IAA29 (Arabidopsis thaliana, UniProt Q93WC4)	relative to: out of 4 tests	0
ETT (Arabidopsis thaliana, UniProt O23661)	relative to: out of 4 tests	0
ARF11 500-622 (Arabidopsis thaliana, UniProt Q9ZPY6)	relative to: out of 2 tests	0

Series 2
Target: Probable WRKY transcription factor 33, N-terminal DNA-binding domain (WRKY33, Arabidopsis thaliana, UniProt Q8S8P5, residues 169-264)
UniProt Q8S8P5, sequence (169-264, looked up): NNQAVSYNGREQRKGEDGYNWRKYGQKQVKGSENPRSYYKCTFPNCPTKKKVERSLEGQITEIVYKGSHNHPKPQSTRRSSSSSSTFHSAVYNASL
Technique: DNA-protein interaction ELISA
Form: double-stranded DNA, one strand shown
Sample: in vitro, bacterial lysate
Tested at: not given
Notes: whole dsDNA probe, crude lysate protein
Relative to: highest signal in screen
Direction: higher = stronger binding
Oligonucleotide	relative absorbance
AAAAAAAAGTGCCAACGTTCAAGAAAAA	24.3 % of maximum
AAAAAATCCTGTTTGCGTTTGATTTTAAAA	28.6 % of maximum
AAAAAACTACTACCTTTGCCTAAGCGAAAA	20.2 % of maximum
AAAAAACCCGCCGTCGTGATTATCACAAAA	22.1 % of maximum
AAAAAATGTCTAGACTCGGACATTCGAAAA	24.3 % of maximum
AAAAAAGTATAACGTGTTGTTGACCGAAAA	82.1 % of maximum
AAAAAAGGCTGTGGCCAATGTTCGTAAAAA	21.1 % of maximum
AAAAAATGATGTTGGCGCATTTAAACAAAA	21.7 % of maximum

Mixed results
P1: viral docking peptide; CKVKRKLFGSENI
Substance	tested on	test	test system	conditions	how to read	measurement	result
DHX16 (Homo sapiens, UniProt O60231)	ARGLU1 (Homo sapiens, UniProt Q9NWB6)	cross-linking MS	cell fractions	with: DSSO		cross-linked residues	T193 to K170
P1 K6A	CCNB1, cyclin fold, Cln2 fusion (human)	yeast growth competition, sequencing	yeast	weak parent motif	relative to: not given, higher = stronger binding	normalised enrichment score	0.576
SRCAP (Homo sapiens, UniProt Q6ZRS2)	CFDP1 (Homo sapiens, UniProt Q9UEE9)	cross-linking MS	cell fractions	with: DMTMM		cross-linked residues	E2301 to K230

Repeated from above (series 2):
Oligonucleotide	relative absorbance
AAAAAAAAGTGCCAACGTTCAAGAAAAA	24.3 % of maximum
AAAAAATCCTGTTTGCGTTTGATTTTAAAA	28.6 % of maximum
